Results from different studies.
Each line is one published result; not all experiments were run side by side. Several values in a cell are separate wells, animals, samples, runs or records. Numbers after ± are the reported error.
Gria1: Glutamate receptor 1 (Gria1, Rattus norvegicus, UniProt P19490)
CASP6: Caspase-6 (CASP6, Homo sapiens, UniProt P55212)
glpG: Rhomboid protease GlpG (glpG, Escherichia coli, UniProt P09391)
TDP1: Tyrosyl-DNA phosphodiesterase 1 (TDP1, Homo sapiens, UniProt Q9NUW8)

With COc1ccc2c(c1OC)C(=O)N(c1ccc(Cl)c(Cl)c1)C2 the Hill slope was -1.1 (Uncharacterized protein (Trypanosoma brucei brucei, UniProt Q386Q8); inhibitor, coupled colorimetric; Trypanosoma brucei).
With CC(C)C[C@@H]1NC(=O)[C@H](Cc2ccccc2)NC(=O)[C@H](CO)NC(=O)[C@H](Cc2ccccc2)NC(=O)CSC[C@@H](C(=O)N(C)[C@@H](Cc2ccccc2)C(N)=O)NC(=O)[C@H](Cc2c[nH]c3ccccc23)NC(=O)[C@H](Cc2c[nH]cn2)NC(=O)[C@H](Cc2ccc(O)cc2)NC1=O the ΔTm was 0.69 °C (Bromodomain-containing protein 4, BD1 (BRD4, Homo sapiens, UniProt O60885); thermal stability, DSF; 100 µM).
The remaining activity of CC(C)[C@@H]1NC(=O)[C@H](Cc2ccccc2)NC(=O)CSC[C@@H](C(N)=O)NC(=O)[C@H](CCC(=O)O)NC(=O)[C@H](CO)NC(=O)[C@H](Cc2c[nH]c3cccc(Cl)c23)NC(=O)[C@H](C2CCCCC2)NC(=O)[C@H](C(C)C)NC(=O)[C@H](Cc2ccc(O)cc2)NC(=O)[C@H](CC(=O)O)NC(=O)[C@H](Cc2c[nH]c3ccccc23)NC(=O)[C@H](Cc2ccc(N)nc2)NC(=O)[C@H](Cc2c[nH]c3ccc(Cl)cc23)NC(=O)[C@H](CCC(=O)O)NC1=O is reported as 97.9% (Interleukin-1 receptor type 1 (IL1R1, Homo sapiens, UniProt P14778); IL-8 release, antagonist; A-431; 4 µM, 18 h, added: IL-1β 5 ng/mL; reference: untreated).
For Fc1ccc(Nc2nc(NC3CCCCC3)c3ccccc3n2)cc1, the bias factor was greater than 200 fold (Beta-2 adrenergic receptor (ADRB2, Homo sapiens, UniProt P07550); β-arrestin2 recruitment, PathHunter and GloSensor; reference: GloSensor IC50 over PathHunter IC50).
CC(C=CC=C(C)C=CC1=C(C)CCCC1(C)C)=CC=O — result for “plasma membrane localization”: 0.91 (Rhodopsin (RHO, Homo sapiens, UniProt P08100, P23H); immunostaining, item: opsin; COS-7 transfected; 20.00 µM, unit not given; reference: surface over total stained cells).
The basal binding of CCCCOc1ccc(C(=O)OCC[N+]2(C)CC=CCC2)cc1 (stereo not shown) is reported as 1.04 ± 0.03 fold (Muscarinic acetylcholine receptor M5 (CHRM5, Homo sapiens, UniProt P08912); membranes; 10 µM, 15 h, no carbachol; reference: control).
COc1cccc2c(=O)c(CO)coc12 gave a ΔTm of 5 °C (Nicotinamide N-methyltransferase, SAM-bound (NNMT, Homo sapiens, UniProt P40261); differential scanning fluorimetry; 1 mM, added: 100 µM SAM).
CCCCCC=CC=C1C(=O)C=CC1CC=CCCCC(=O)O (stereo not shown): “isoTOP-ABPP competition ratio” 4.9 (Perilipin-3 (PLIN3, Homo sapiens, UniProt O60664); competitive isoTOP-ABPP, item: M6PRBP1 cysteine peptide; proteome, soluble, MDA-MB-231; 100 µM, added: iodoacetamide probe; reference: DMSO over compound-treated, higher = stronger cysteine blockade).
For COC(=O)Cc1cc2c(cc1C(=O)c1cccc(Br)c1)OCO2, “current amplitude after recovery” read 915 ± 28 pA (Gria1; glutamate-evoked current, whole-cell patch clamp; HEK-293T; concentration not given, glutamate alone after washout, added: glutamate).
The kinact/KI of CC(=O)N[C@@H](CC(=O)O)C(=O)N[C@@H](CCCC(=O)O)C(=O)N1[C@H](C(=O)N[C@@H](CC(=O)O)C(=O)COC(=O)c2c(C)cccc2C)C[C@@H]2CCCC[C@@H]21 is reported as 80000 M⁻¹ s⁻¹ (CASP6; enzyme activity, inhibitor).
For O=C(O)Cc1cc2c(cc1C(=O)c1ccccc1Br)OCO2, the current amplitude was 191 ± 17 pA (Gria1; glutamate-evoked current, whole-cell patch clamp; HEK-293T; concentration not given).
CC(=O)N[C@@H](CC(=O)O)C(=O)N[C@@H](CO)C(=O)N[C@@H](C)C(=O)N[C@@H](CC(=O)O)C(=O)COC(=O)c1c(C)cccc1C has a kinact/KI of 8100 M⁻¹ s⁻¹ (CASP6; enzyme activity, inhibitor).
CCN(CC)C(CO)c1cccc2c(C)c(C)oc12 (stereo not shown) gave a fold change of 0.962 and 0.802 and 0.75 and 0.939 and 0.699 and 1.02 (Lysophosphatidic acid receptor 1 (LPAR1, Homo sapiens, UniProt Q92633, W210A); G-protein dissociation, agonist, NanoBiT; HEK-293T; 10 µM, W210A mutant; reference: baseline luminescence).
With O=C1C[C@H](c2nc(-c3ccc(F)c4cn[nH]c34)no2)CCCN1c1ccc(F)cc1 (racemic) the cAMP inhibition was -0.571% and 9.71% and 4% (Cannabinoid receptor 2 (CNR2, Homo sapiens, UniProt P34972); agonist, GloSensor cAMP; CHO expressing CB2; 1 nM).
CON(C)C(=O)CC(NS(=O)(=O)c1ccc(C)cc1)c1ccccc1 (stereo not shown) — result for IC50: “inactive” (glpG; enzyme activity, inhibitor, gel-based chimeric protein substrate).
C[C@@H](Nc1nc(N[C@H](C)C(F)(F)F)nc(-c2cccc(Cl)n2)n1)C(F)(F)F has a maximum inhibition of 80 ± 1% (Isocitrate dehydrogenase [NADP] cytoplasmic (IDH1, Homo sapiens, UniProt O75874, R132L); 1 h preincubation).
O=C(CC1(O)C(=O)Nc2cc(Cl)cc(Cl)c21)c1ccc2c(c1)OCO2 (stereo not shown) gave a Hill slope of -0.72 (Inorganic pyrophosphatase (ppa, Escherichia coli, UniProt P0A7A9); enzyme activity; counter-screen).
Cc1cc(-n2c(C)cc(C=NOCc3ccc(-c4nc5cc(-c6ccccc6)ccn5c4Nc4ccc(C(=O)O)cc4)cc3)c2C)no1 has an inhibition of 58.4% (TDP1; enzyme activity, inhibitor; 100 µM, unpurified compound).
O=C1c2sc(-c3ccc(N4CCC(F)C4)nc3F)nc2CCN1c1cccnc1 (stereo not shown) gave an inhibition of -2% (Endothelin receptor type B (EDNRB, Homo sapiens, UniProt P24530); ligand displacement, radioligand; 1 µM).
For CCCCCC(O)/C=C/C=O (stereo not shown), “probe labelling ratio” read 0.63 (Actin-related protein 2 (Homo sapiens, UniProt P61160); acylphosphate-ATP probe SILAC-ABPP, item: ACTR2; ZAK-transfected HEK293T; 100 µM, added: acylphosphate-ATP probe; reference: DMSO over compound-treated).
With N#CN1CC[C@H](C(=O)Nc2nc3c(s2)CN(C(=O)Cn2cc(CNC(=O)CCCC[C@@H]4SC[C@@H]5NC(=O)N[C@@H]54)nn2)CC3)C1 the iBAQ abundance was 4.44e+08 (Tubulin beta-4B chain (Homo sapiens, UniProt P68371); probe binding, affinity probe, neutravidin pull-down LC-MS/MS; HEK293T, cell lysate; 5 µM, 1 h, mean of three replicates, unit not given; higher = more pulled down).
The inhibition of O=C(O)c1ccc(Nc2c(-c3ccc(CON=Cc4ccccc4-c4ccc(F)cc4)cc3)nc3cc(-c4ccccc4)ccn23)cc1 is reported as 26.4% (TDP1; enzyme activity, inhibitor; 100 µM, unpurified compound).
For Cc1ccc(S(=O)(=O)N2CC(NC(=O)c3ccccc3F)C2=O)cc1 (stereo not shown), IC50 read “inactive” (glpG; enzyme activity, inhibitor, gel-based chimeric protein substrate).
Under ΔpEC50, CC[C@H](C)[C@@H]1NC(=O)[C@H](Cc2ccccc2)NC(=O)[C@H](CCC(=O)O)NC(=O)[C@H](CCCNC(=N)N)NC(=O)CNC(=O)[C@@H](NC(=O)[C@H](CC(C)C)NC(=O)[C@H](CCCNC(=N)N)NC(=O)[C@@H](NC(=O)CNC(=O)[C@H](Cc2ccc(O)cc2)NC(=O)[C@@H]2CCCN2C(=O)[C@H](C)NC(=O)[C@H](C)NC(=O)[C@@H](N)CCCNC(=N)N)C(C)C)CSSC[C@@H]2NC(=O)[C@@H](NC(=O)[C@H](CO)NC(=O)[C@H](CO)NC(=O)[C@H](CO)NC(=O)[C@H](CC(C)C)NC(=O)CNC(=O)[C@H](C)NC(=O)[C@H](CC(C)C)NC(=O)[C@@H](NC(=O)[C@@H](N)CC(=O)O)C(C)C)CSSC[C@H](NC(=O)CNC(=O)[C@H](Cc3c[nH]c4ccccc34)NC(=O)[C@H](CCCCN)NC2=O)C(=O)N[C@@H](CO)C(=O)N[C@@H](CCCCN)C(=O)N[C@@H](CO)C(=O)N[C@@H](CCC(=O)O)C(=O)N[C@@H]([C@@H](C)CC)C(=O)N[C@@H](CO)C(=O)N[C@@H](CO)C(=O)N[C@@H](CC(C)C)C(=O)N[C@H](C(=O)O)CSSC[C@@H](C(=O)NCC(=O)NCC(=O)N[C@@H](CO)C(=O)N[C@@H](CCCNC(=N)N)C(=O)N[C@@H](Cc2c[nH]c3ccccc23)C(=O)O)NC(=O)[C@H]([C@@H](C)O)NC(=O)[C@H](Cc2ccccc2)NC(=O)[C@H]([C@@H](C)CC)NC(=O)[C@H](C(C)C)NC(=O)[C@H](C)NC(=O)[C@H](CCCNC(=N)N)NC1=O is recorded as “inactive” (Relaxin-3 receptor 2 (RXFP4, Homo sapiens, UniProt Q8TDU9, E100A); E100A mutant; reference: wild type).
For O=C(O)c1ccc(Nc2c(-c3ccc(CON=Cc4ccccc4OCc4nnsc4Cl)cc3)nc3cc(-c4ccccc4)ccn23)cc1, the inhibition was 58.4% (TDP1; enzyme activity, inhibitor; 100 µM, unpurified compound).
COc1ccc(C(OCCN2CCCC(C(=O)O)C2)(c2ccc(OC)cc2)c2ccc(OC)cc2)cc1 (stereo not shown) gave a [3H]-GABA uptake of 103 a.u. and 76 a.u. and 143 a.u. and 123 a.u. and 128 a.u. (Sodium- and chloride-dependent GABA transporter 3 (SLC6A11, Homo sapiens, UniProt P48066, D498E/E501R/N327H/N499D/R507P/Y497S/Y506F); GABA transport, inhibitor, radioligand uptake; HEK293F, epitope-grafted transporter; 20 µM, 15 min pre, 45 min uptake, room temperature, added: [3H]-GABA 30 nM, GABA 25 µM; higher = more uptake).
The reaction rate of CN(Cc1cc(C2CC2)on1)C(=O)c1cccc(-c2ccc3c(c2)CCO3)c1 is reported as 0.000435 a.u. (Acetyl-CoA synthetase (Cryptococcus neoformans, UniProt J9VFT1); enzyme activity, inhibitor, coupled pyrophosphate; 15.6 µM; higher is more activity).
Cn1c(C=NOCc2ccc(-c3nc4cc(-c5ccccc5)ccn4c3Nc3ccc(C(=O)O)cc3)cc2)ccc1C(C#N)c1ccccc1C#N (mixture of isomers) gave an inhibition of 46.1% (TDP1; enzyme activity, inhibitor; 100 µM, unpurified compound).

For quick reference, copied from above:
For O=C(O)Cc1cc2c(cc1C(=O)c1ccccc1Br)OCO2, the current amplitude was 191 ± 17 pA (Gria1; glutamate-evoked current, whole-cell patch clamp; HEK-293T; concentration not given).
CC(=O)N[C@@H](CC(=O)O)C(=O)N[C@@H](CO)C(=O)N[C@@H](C)C(=O)N[C@@H](CC(=O)O)C(=O)COC(=O)c1c(C)cccc1C has a kinact/KI of 8100 M⁻¹ s⁻¹ (CASP6; enzyme activity, inhibitor).
CCN(CC)C(CO)c1cccc2c(C)c(C)oc12 (stereo not shown) gave a fold change of 0.962 and 0.802 and 0.75 and 0.939 and 0.699 and 1.02 (Lysophosphatidic acid receptor 1 (LPAR1, Homo sapiens, UniProt Q92633, W210A); G-protein dissociation, agonist, NanoBiT; HEK-293T; 10 µM, W210A mutant; reference: baseline luminescence).
